# Published values pooled from the literature.
# Lines come from different studies, so protocols differ. Values joined by “and” are separate records of one study, mostly repeats; a detail may differ. ± marks the error that the study gave.
SMILES,assay,test system,conditions,endpoint,value
CCCC[C@@H]1NC(=O)[C@H](Cc2ccc(O)cc2)NC(=O)[C@@H]2CCCN2C(=O)[C@H](CC(=O)O)NC(=O)[C@H](C)NC(=O)[C@H](Cc2ccccc2)NC(=O)[C@@H]2CSCCC(=O)N3CN(CN(C3)C(=O)CCSC[C@@H](C(=O)N[C@@H](C)C(N)=O)NC1=O)C(=O)CCSC[C@H](NC(C)=O)C(=O)N[C@@H](CC(C)(C)C)C(=O)N1CCC[C@H]1C(=O)N[C@@H](CCC(=O)O)C(=O)N[C@H](CCCCNC(=O)CCc1cn(CCOCCOCCOCCN(CCOCCOCCOCCC(=O)N[C@H]3CSCCC(=O)N4CN5CN(C4)C(=O)CCSC[C@H](NC(=O)[C@@H](CCC(=O)O)NC(=O)[C@H](Cc4cccc6ccccc46)NC(=O)[C@@H]4CCCN4C3=O)C(=O)N[C@@H](CCSC)C(=O)N[C@@H](CCCCNC(=N)N)C(=O)N[C@@H](CCC(=O)O)C(=O)N[C@@H](Cc3c[nH]c4ccccc34)C(=O)N[C@@H](CO)C(=O)N[C@@H]([C@@H](C)O)C(=O)N3CCC[C@H]3C(=O)N3C[C@H](O)C[C@H]3C(=O)N[C@@H](Cc3c[nH]c4ccccc34)C(=O)N[C@H](C(N)=O)CSCCC5=O)CCOCCOCCOCCn3cc(CCC(=O)NCCCC[C@H]4NC(=O)[C@H](CCC(=O)O)NC(=O)[C@@H]5CCCN5C(=O)[C@H](CC(C)(C)C)NC(=O)[C@@H](NC(C)=O)CSCCC(=O)N5CN6CN(C5)C(=O)CCSC[C@H](NC(=O)[C@H](Cc5ccc(O)cc5)NC(=O)[C@@H]5CCCN5C4=O)C(=O)N[C@@H](Cc4ccccc4)C(=O)N[C@@H](C)C(=O)N[C@@H](CC(=O)O)C(=O)N4CCC[C@H]4C(=O)N[C@@H](Cc4ccc(O)cc4)C(=O)N[C@@H](CCCC)C(=O)N[C@H](C(=O)N[C@@H](C)C(N)=O)CSCCC6=O)nn3)nn1)C(=O)N1CCC[C@H]1C(=O)N[C@@H](Cc1ccc(O)cc1)C(=O)N2,,"rat, plasma","intravenous, 2 mg/kg",Vd,1 L/kg
CSCC[C@H](NC(=O)[C@@H](NC(=O)[C@H](CC(C)C)NC(=O)[C@@H](NC(=O)[C@H](Cc1c[nH]cn1)NC(=O)CCCCCNC(=O)[C@H](CCCNC(=N)N)NC(=O)[C@H](CCCNC(=N)N)NC(=O)[C@H](CCCNC(=N)N)NC(=O)[C@H](CCC(N)=O)NC(=O)[C@H](CCCNC(=N)N)NC(=O)[C@H](CCCNC(=N)N)NC(=O)[C@H](CCCCN)NC(=O)[C@H](CCCCN)NC(=O)[C@H](CCCNC(=N)N)NC(=O)CNC(=O)[C@@H](N)Cc1ccc(O)cc1)C(C)C)C(C)C)C(=O)N[C@@H](CS)C(=O)N[C@@H](C)C(=O)N[C@H](C(N)=O)[C@@H](C)O,,C57BL/6J mice,"Alzet osmotic pump, 3 mg/kg, 8 weeks",total protein,4.3 g/dL
C=C/C=C/C[C@@H](C)[C@@H](O)[C@H]1C(=O)N[C@@H](CC)C(=O)N(C)CC(=O)N(C)[C@@H](CC(C)C)C(=O)N[C@@H](C(C)C)C(=O)N(C)[C@@H](CC(C)C)C(=O)N[C@@H](C)C(=O)N[C@H](C)C(=O)N(C)[C@@H](CC(C)C)C(=O)N(C)[C@@H](CC(C)C)C(=O)N(C)[C@@H](C(C)C)C(=O)N1C,,"Wistar Kyoto rat, male, plasma","ip, 0.5 mg/kg/day, day 28, at sacrifice",plasma total Ca2+,2.63 ± 0.05 mmol/L
C/C(=N\OCCCN1CCCCC1)c1ccc(C(F)(F)F)cc1,,rhesus monkey,"dose not given, after dosing",QRS interval,42 ms and 40 ms
CCc1nn(C)c2nc(-c3ccc(C(=O)O)cc3)nc(NCc3ccccc3)c12,,"male CD-1 mouse, plasma","oral, 10 mg/kg, 2 h",concentration,672 ng/mL
CC(C)[C@@H]1NC(=O)CNC(=O)[C@H](CC(N)=O)NC(=O)[C@H](CCCNC(=N)N)NC(=O)[C@H](Cc2ccc(O)cc2)NC(=O)[C@H](C(C)C)NC(=O)[C@@H](NC(=O)[C@@H](NC(=O)[C@H](CC(N)=O)NC(=O)[C@H](Cc2c[nH]c3ccccc23)NC(=O)[C@H](C)NC(=O)[C@H](Cc2ccccc2)NC(=O)CNC(=O)[C@H](CCCCN)NC(=O)[C@H](Cc2ccccc2)NC(=O)[C@H](Cc2ccccc2)NC(=O)[C@H](CCCCN)NC(=O)OCC2c3ccccc3-c3ccccc32)C(C)C)CSSC[C@@H](C(=O)N[C@@H](Cc2c[nH]cn2)C(=O)N[C@@H](CCCNC(=N)N)C(=O)N[C@@H](CCCNC(=N)N)C(=O)N[C@@H](C)C(=O)N[C@@H](CC(N)=O)C(N)=O)NC(=O)[C@H](C(C)C)NC(=O)[C@H](CCCNC(=N)N)NC1=O,,"ICR mice, blood","intraperitoneal, 5 mg/kg, day 5",haematocrit,41.8 ± 1.76%
O=C1NC2(CC2)COc2ncc(F)cc2[C@H]2COCCN2c2ccn3ncc1c3n2,,"Sprague-Dawley rat, female, serum","oral, 10 mg/kg/day, end of recovery, 4-week subacute toxicity",serum hepatic lipase activity,3.5 ± 0.3 U/L
Cc1ccc(OCC(=O)N(Cc2cccs2)c2ccn[nH]2)cc1,in vivo micronucleus,"Crl:CD-1(ICR) mice, female, bone marrow polychromatic erythrocytes","oral, 2000 mg/kg/day, 3 days",micronucleated PCEs,0.01 ± 0.02%
[2H]C([2H])([2H])C1(C([2H])([2H])[2H])NC(=O)N(c2ccc(F)c(C(C)(F)F)c2)C1=O,,"Sprague-Dawley rat, male and female","oral, single dose, preliminary",NOAEL,~25 mg/kg
C#Cc1c(F)ccc2cc(O)cc(-c3ncc4c(N5CC6CCC(C5)N6C(=O)OC(OC(=O)CCC)C5CCCCC5)nc(OC[C@@]56CCCN5C[C@H](F)C6)nc4c3F)c12 (some centres unmarked),chemical stability,simulated intestinal fluid,"1 µM, 30 min",compound remaining,103%
CC(=O)N[C@H](C(=O)N[C@@H](CCCC(=O)OC(C)(C)C)C(=O)N[C@@H](CCC1CCCCC1)C(=O)N[C@@H](CC(=O)O)C(=O)COC(=O)c1c(C)cccc1C)C(C)(C)C,,"C57BL/6N mouse, female, whole blood","intraperitoneal, dose not given, 0.08 h",blood concentration,208 µM and 215 µM
CCCCCCCCCCCCCCCC(=O)N[C@@H](CCC(=O)NCCOCCOCCC(=O)NCCOCCOCCC(=O)NCCCC[C@H](NC(=O)[C@H](CC(=O)O)NC(=O)[C@H](CC(C)C)NC(=O)[C@H](Cc1ccc(O)cc1)NC(=O)[C@H](CCCCN)NC(=O)[C@H](CO)NC(=O)[C@H](Cc1ccc(O)cc1)NC(=O)[C@H](CC(=O)O)NC(=O)[C@H](CO)NC(=O)[C@@H](NC(=O)[C@H](Cc1ccccc1)NC(=O)[C@@H](NC(=O)CNC(=O)[C@H](CCC(N)=O)NC(=O)[C@@H](CO)NC(=O)[C@@H](N)Cc1c[nH]cn1)[C@@H](C)O)[C@@H](C)O)C(=O)N[C@@H](CCCNC(=N)N)C(=O)N[C@@H](CCCNC(=N)N)C(=O)N[C@@H](C)C(=O)N[C@@H](CCC(N)=O)C(=O)N[C@@H](CC(=O)O)C(=O)N[C@@H](Cc1ccccc1)C(=O)N[C@H](C(=O)N[C@@H](CCC(N)=O)C(=O)N[C@@H](Cc1c[nH]c2ccccc12)C(=O)N[C@@H](CC(C)C)C(=O)N[C@@H](CC(C)C)C(=O)N[C@@H](CC(N)=O)C(=O)N[C@H](C(=O)NCC(=O)NCC(=O)N1CCC[C@H]1C(=O)N[C@@H](CO)C(=O)N[C@@H](CO)C(=O)NCC(=O)N[C@@H](C)C(=O)N1CCC[C@H]1C(=O)N1CCC[C@H]1C(=O)N1CCC[C@H]1C(=O)N[C@@H](CO)C(N)=O)[C@@H](C)O)C(C)C)C(=O)O,,"Sprague-Dawley rat, female","subcutaneous, 20 µg/kg once daily, 14 days",creatinine,24.8 ± 1.9 µmol/L
CN1C(=O)[C@@H]2NC(=O)[C@@H]3NC(=O)[C@@H](c4ccc(O)cc4)NC(=O)[C@H](NC(=O)C(N)c4ccc(O)cc4)Cc4c[nH]c5cc(ccc45)-c4cc3cc(c4O)Oc3ccc(cc3)C[C@H]1C(=O)N[C@@H](C(=O)O)c1ccc(O)c(c1)Oc1ccc2cc1 (some centres unmarked),,saline,"24 h, 25 °C",thermodynamic solubility,6.1 µg/mL
CC(=O)c1c(C)c2cnc(Nc3ccc(N4CCNCC4)cn3)nc2n(C2CCCC2)c1=O,,"C57BL/6 mice, blood","25 mg/kg, P25, dosed P10 to P24",total protein,4.6 ± 1 g/dL
CC[C@H](C)[C@H](NC(=O)[C@H](CCCCN)NC(=O)CNC(=O)[C@H](CC(C)C)NC(=O)[C@H](Cc1ccccc1)NC(=O)[C@H](CCCCN)NC(=O)[C@H](CO)NC(=O)[C@H](Cc1ccccc1)NC(=O)[C@H](Cc1c[nH]c2ccccc12)NC(=O)[C@H](CCC(N)=O)NC(=O)[C@@H](NC(=O)[C@H](Cc1ccccc1)NC(=O)CCCCCNC(=O)CN1CCN(CC(=O)O)CCN(CC(=O)O)CCN(CC(=O)O)CC1)C(C)C)C(=O)N[C@@H](CCC(=O)O)C(=O)N1CCC[C@H]1C(=O)N[C@@H](CC(=O)O)C(=O)N[C@H](C(=O)N[C@@H](CO)C(=O)N[C@@H](CCC(N)=O)C(=O)N[C@H](C(=O)N[C@@H](CCC(N)=O)C(=O)N[C@@H](CC(=O)O)C(=O)N1CCC[C@H]1C(=O)N[C@@H](CC(N)=O)C(=O)N[C@@H](CC(=O)O)C(=O)N[C@@H](CCC(N)=O)C(=O)N[C@@H](Cc1ccc(O)cc1)C(=O)N[C@@H](CCC(=O)O)C(=O)N1CCC[C@H]1C(=O)N[C@@H](Cc1ccccc1)C(=O)O)C(C)C)C(C)C [copper-64 labelled],,"BALB/c mice, male, CT26 tumour-bearing, large intestine","2 h, anti-PD1 plus anti-CTLA4 treated",tissue uptake,3.8 ± 1.1 %ID/g
CN1Cc2cc(Cl)ccc2-n2c(nnc2C2CCN(c3cccc([18F])n3)CC2)C1,,"C57BL/6 mouse male, stomach","intravenous, 3.7 MBq, 15 min",tissue uptake,12.9 ± 2.82 %ID/g
CN(C)C(=O)c1cncc(-c2cnc3[nH]cc(-c4cc(OS(=O)(=O)F)ccc4C#N)c3c2)c1,HPLC,,"50 µM, 37 °C, no lysine, followed to 24 h",hydrolytic half-life,> 24 h

# Some of these lines once more:
SMILES,assay,test system,conditions,endpoint,value
CN1Cc2cc(Cl)ccc2-n2c(nnc2C2CCN(c3cccc([18F])n3)CC2)C1,,"C57BL/6 mouse male, stomach","intravenous, 3.7 MBq, 15 min",tissue uptake,12.9 ± 2.82 %ID/g
